{"data": "Experimental data collected from several papers", "note": "A part holds a random share of what one study measured. Substitutions count along the parent as printed.", "UniProt P21127, sequence (whole entry, looked up)": "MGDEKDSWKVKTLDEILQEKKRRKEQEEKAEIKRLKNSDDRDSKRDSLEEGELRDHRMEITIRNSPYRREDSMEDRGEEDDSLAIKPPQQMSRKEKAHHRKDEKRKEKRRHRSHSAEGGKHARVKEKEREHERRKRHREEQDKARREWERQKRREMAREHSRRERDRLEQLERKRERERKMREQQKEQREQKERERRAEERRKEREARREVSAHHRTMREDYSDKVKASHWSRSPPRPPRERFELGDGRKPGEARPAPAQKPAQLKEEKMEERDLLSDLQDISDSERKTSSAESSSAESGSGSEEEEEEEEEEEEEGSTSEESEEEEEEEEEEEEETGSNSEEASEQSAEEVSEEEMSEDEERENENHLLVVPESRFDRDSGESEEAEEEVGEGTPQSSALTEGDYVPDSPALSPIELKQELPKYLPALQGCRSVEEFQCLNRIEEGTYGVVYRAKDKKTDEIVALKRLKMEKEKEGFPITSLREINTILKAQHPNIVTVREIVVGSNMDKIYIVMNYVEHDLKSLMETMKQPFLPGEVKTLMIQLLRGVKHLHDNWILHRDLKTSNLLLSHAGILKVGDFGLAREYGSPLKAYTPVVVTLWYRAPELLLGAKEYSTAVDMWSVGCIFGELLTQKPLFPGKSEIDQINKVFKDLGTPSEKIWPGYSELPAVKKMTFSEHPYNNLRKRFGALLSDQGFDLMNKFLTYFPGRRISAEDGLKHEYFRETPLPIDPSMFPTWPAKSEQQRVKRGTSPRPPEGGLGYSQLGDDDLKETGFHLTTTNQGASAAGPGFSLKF", "UniProt Q02156, sequence (whole entry, looked up)": "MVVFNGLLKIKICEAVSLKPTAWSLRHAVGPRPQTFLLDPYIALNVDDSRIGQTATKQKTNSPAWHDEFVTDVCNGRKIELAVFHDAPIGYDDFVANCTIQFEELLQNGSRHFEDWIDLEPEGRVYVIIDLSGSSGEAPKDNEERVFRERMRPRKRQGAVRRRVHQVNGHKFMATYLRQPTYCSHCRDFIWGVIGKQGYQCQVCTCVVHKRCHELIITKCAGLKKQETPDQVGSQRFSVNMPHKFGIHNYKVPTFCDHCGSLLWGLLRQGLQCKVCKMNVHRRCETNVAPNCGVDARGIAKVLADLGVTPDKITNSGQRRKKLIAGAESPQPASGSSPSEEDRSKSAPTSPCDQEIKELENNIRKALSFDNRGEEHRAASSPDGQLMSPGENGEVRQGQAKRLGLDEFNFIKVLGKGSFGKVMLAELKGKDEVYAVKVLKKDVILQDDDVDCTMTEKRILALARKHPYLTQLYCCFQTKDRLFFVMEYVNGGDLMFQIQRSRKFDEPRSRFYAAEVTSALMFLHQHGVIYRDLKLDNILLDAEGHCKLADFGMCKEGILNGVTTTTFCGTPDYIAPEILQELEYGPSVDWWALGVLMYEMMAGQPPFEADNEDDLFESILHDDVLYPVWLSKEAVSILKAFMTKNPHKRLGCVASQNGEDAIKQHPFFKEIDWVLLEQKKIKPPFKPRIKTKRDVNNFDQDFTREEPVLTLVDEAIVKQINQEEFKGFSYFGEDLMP", "UniProt Q13976, sequence (whole entry, looked up)": "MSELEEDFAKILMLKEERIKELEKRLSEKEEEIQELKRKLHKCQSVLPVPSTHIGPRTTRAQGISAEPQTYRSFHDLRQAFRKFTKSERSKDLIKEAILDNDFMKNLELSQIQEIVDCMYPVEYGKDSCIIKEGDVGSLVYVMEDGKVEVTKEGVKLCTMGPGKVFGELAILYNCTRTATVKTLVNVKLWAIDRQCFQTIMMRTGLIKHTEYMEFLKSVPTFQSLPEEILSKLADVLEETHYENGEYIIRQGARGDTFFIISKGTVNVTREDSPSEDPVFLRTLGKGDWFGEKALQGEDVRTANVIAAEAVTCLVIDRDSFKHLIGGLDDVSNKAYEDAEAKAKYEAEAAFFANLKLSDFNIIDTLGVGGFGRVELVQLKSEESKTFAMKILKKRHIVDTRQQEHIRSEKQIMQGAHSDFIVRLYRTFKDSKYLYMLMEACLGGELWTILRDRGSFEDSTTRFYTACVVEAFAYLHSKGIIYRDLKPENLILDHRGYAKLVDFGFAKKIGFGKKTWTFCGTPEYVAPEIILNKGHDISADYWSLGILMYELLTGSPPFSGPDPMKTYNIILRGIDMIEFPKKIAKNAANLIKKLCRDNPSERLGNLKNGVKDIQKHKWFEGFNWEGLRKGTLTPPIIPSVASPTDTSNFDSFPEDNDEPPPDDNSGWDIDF", "UniProt P33981, sequence (whole entry, looked up)": "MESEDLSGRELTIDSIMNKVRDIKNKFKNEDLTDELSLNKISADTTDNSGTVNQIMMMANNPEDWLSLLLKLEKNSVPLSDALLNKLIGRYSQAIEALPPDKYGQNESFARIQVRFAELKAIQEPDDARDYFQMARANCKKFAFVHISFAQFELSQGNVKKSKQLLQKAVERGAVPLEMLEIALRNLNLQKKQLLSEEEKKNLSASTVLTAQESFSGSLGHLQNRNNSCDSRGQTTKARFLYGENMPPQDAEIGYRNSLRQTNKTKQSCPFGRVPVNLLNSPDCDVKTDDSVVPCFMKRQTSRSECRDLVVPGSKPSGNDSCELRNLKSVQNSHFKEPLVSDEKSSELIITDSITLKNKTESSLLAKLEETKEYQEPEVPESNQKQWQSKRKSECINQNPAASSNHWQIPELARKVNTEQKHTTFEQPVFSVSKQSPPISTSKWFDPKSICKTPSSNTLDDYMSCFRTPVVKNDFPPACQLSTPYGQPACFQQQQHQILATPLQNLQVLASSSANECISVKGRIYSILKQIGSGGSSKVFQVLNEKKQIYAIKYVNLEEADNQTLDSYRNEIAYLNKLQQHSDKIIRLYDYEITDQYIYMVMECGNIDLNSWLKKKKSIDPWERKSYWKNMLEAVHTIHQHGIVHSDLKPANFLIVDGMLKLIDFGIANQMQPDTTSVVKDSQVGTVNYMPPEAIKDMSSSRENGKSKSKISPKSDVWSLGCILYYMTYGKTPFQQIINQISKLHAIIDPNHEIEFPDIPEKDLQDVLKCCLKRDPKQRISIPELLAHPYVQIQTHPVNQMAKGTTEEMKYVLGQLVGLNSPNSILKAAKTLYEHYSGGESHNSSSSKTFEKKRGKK", "UniProt Q15569, sequence (whole entry, looked up)": "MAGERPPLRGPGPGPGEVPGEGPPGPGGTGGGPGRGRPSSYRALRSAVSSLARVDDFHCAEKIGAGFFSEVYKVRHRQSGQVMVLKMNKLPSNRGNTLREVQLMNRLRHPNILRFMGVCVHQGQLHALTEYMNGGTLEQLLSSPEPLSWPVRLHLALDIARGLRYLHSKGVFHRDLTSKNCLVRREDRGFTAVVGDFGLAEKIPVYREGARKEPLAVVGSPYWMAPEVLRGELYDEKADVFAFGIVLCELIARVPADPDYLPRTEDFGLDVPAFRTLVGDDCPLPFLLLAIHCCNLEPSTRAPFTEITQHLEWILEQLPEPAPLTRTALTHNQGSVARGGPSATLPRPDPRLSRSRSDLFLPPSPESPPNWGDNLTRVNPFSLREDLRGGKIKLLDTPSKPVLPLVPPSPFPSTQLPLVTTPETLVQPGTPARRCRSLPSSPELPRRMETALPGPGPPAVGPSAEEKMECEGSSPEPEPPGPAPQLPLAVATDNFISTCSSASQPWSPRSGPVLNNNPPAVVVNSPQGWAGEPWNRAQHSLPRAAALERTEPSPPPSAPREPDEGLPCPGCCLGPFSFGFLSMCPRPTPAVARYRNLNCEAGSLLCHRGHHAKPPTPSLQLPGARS", "UniProt O75716, sequence (whole entry, looked up)": "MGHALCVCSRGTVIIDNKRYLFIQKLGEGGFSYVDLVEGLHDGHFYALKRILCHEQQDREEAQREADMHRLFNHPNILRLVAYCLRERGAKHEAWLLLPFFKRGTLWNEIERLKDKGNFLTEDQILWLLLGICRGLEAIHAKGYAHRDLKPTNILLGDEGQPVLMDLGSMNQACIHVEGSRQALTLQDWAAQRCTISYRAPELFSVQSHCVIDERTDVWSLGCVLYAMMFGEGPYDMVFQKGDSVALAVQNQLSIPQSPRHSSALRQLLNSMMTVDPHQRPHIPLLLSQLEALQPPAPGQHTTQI", "UniProt P52564, sequence (whole entry, looked up)": "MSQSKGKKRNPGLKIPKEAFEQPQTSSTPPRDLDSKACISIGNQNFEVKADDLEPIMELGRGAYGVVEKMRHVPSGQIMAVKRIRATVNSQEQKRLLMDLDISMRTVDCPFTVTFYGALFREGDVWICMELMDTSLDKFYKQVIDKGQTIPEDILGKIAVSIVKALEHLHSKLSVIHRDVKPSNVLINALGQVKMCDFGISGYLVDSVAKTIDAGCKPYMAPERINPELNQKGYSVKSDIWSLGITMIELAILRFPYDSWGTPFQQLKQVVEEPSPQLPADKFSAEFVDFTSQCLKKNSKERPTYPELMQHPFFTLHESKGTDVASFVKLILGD"}
{"data": "Set 1", "Compound": "O=C(O)[C@H]1[C@H](Cn2nnc3ccccc3c2=O)CC[C@@H]1C(=O)c1ccc(OCCC2CCOCC2)cc1", "effect on": "cell-free assay", "method": "competition with immobilised ligand", "concentration": "1 µM"}
{"target": "TESK1 (Homo sapiens, UniProt Q15569)", "remaining binding": "100%"}
{"target": "ERBB3 (Homo sapiens, UniProt P21860)", "remaining binding": "69%"}
{"target": "TTK (Homo sapiens, UniProt P33981)", "remaining binding": "83%"}
{"target": "Tyrosine-protein kinase JAK1, JH2 (JAK1, Homo sapiens, UniProt P23458)", "remaining binding": "100%"}
{"target": "STK16 (Homo sapiens, UniProt O75716)", "remaining binding": "85%"}
{"target": "WNK3 (Homo sapiens, UniProt Q9BYP7)", "remaining binding": "100%"}
{"target": "PRKG1 (Homo sapiens, UniProt Q13976)", "remaining binding": "75%"}
{"target": "MAP2K6 (Homo sapiens, UniProt P52564)", "remaining binding": "100%"}
{"target": "CDK11B (Homo sapiens, UniProt P21127)", "remaining binding": "88%"}
{"target": "PRKCE (Homo sapiens, UniProt Q02156)", "remaining binding": "100%"}
{"data": "Set 2", "target": "Beta-adrenergic receptor kinase 1 (GRK2, Homo sapiens, UniProt P25098)", "effect on": "enzyme activity", "mode": "inhibitor", "concentration": "0.5 µM", "relative to": "control", "Target sequence (P25098 1-689)": "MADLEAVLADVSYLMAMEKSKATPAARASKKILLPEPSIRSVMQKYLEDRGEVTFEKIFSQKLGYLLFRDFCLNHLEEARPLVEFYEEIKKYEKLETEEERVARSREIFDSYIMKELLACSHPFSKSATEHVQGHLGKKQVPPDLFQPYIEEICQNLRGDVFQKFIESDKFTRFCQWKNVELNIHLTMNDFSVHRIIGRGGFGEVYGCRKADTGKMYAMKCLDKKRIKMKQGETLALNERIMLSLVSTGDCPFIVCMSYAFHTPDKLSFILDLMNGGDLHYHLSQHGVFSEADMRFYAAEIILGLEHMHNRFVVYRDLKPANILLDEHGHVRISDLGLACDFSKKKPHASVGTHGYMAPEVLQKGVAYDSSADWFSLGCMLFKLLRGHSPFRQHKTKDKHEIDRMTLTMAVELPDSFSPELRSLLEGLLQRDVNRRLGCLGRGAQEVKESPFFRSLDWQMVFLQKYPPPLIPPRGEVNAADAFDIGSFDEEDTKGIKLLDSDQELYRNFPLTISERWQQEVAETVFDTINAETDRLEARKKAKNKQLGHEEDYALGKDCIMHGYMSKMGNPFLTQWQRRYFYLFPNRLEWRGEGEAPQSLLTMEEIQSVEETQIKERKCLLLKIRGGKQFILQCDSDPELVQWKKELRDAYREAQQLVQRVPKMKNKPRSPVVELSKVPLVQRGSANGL"}
{"Structure (SMILES)": "COc1cc2ncnc(Nc3cccc(Cl)c3)c2cc1OC", "remaining activity": "96.6%"}
{"Structure (SMILES)": "c1ccc(-c2cnc(Nc3ccc(OCCN4CCCC4)cc3)s2)cc1", "remaining activity": "95.8%"}
{"Structure (SMILES)": "N#C/C(=C\\c1ccc(O)c(O)c1)C(=O)NCc1ccccc1", "remaining activity": "96.6%"}
{"Structure (SMILES)": "CCOc1nc(NC(=O)Cc2cc(OC)ccc2OC)cc(N)c1C#N", "remaining activity": "108%"}
{"Structure (SMILES)": "CCN(CC)CCNC(=O)c1c(C)[nH]c(/C=C2\\C(=O)Nc3ccc(Cl)cc32)c1C", "remaining activity": "104%"}
{"Structure (SMILES)": "N#Cc1c(NC(=O)c2cccc3ccccc23)sc2c1CCCC2", "remaining activity": "105%"}
{"Structure (SMILES)": "CN([C@@H](Cc1ccc(OS(=O)(=O)c2cccc3cnccc23)cc1)C(=O)N1CCN(c2ccccc2)CC1)S(=O)(=O)c1cccc2cnccc12", "remaining activity": "97.5%"}
{"data": "Set 3", "target": "CCND3, cyclin fold, Cln2 fusion (human)", "method": "yeast growth competition, sequencing", "sample": "yeast", "setting": "weak parent motif", "relative to": "not given", "reading": "higher = stronger binding", "starting sequence": "E2F1 docking peptide (human); PPVKRRLDLETDH; partner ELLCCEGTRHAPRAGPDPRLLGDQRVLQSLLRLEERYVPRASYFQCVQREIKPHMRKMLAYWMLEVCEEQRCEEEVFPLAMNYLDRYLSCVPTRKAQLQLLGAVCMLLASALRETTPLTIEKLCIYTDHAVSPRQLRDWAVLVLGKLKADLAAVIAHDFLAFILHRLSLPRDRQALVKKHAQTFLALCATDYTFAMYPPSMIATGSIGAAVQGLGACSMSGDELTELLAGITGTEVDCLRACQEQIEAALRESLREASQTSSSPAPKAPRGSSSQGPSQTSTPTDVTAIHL"}
{"Change": "R6H", "normalised enrichment score": 0.178}
{"Change": "V3A", "normalised enrichment score": 0.174}
{"Change": "H13S", "normalised enrichment score": 0.136}
{"Change": "L7C", "normalised enrichment score": 0.143}
{"Change": "P1Q", "normalised enrichment score": 0.0928}
{"Change": "P2N", "normalised enrichment score": 0.14}
{"Change": "T11V", "normalised enrichment score": 0.0511}
{"Change": "P2S", "normalised enrichment score": 0.1}
{"data": "Set 4", "target": "RNA binding protein fox-1 homolog 2, RRM domain, GST-SBP tag (RBFOX2, Homo sapiens, UniProt O43251-10, residues 100-194)", "method": "RNA Bind-n-Seq", "molecule type": "RNA", "sample": "in vitro", "concentration": "365 nM", "setting": "natural RNA segment, single round, ends assumed", "relative to": "no-protein control", "reading": "higher = stronger binding", "constant ends, left off below": "GGGAGUUCUACAGUCCGACGAUC … UGGAAUUCUCGGGUGCCAA", "Target sequence (chain)": "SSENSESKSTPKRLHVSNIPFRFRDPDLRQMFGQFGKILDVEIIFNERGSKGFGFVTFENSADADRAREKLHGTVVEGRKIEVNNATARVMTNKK"}
{"Sequence": "AUCUCAUUCAAAUGUUUGUUGUUAUGAUGCAAAUGGAUAUUGGUUUCAAUAGAAGCUGGAUCCUUAAUACUGCAUUUUCUGAAUUCUGUUUUAAUAUUUGUGUUAAAGUA", "RBNS enrichment (R)": 0.518}
{"Sequence": "CCUGGGAGCGUCUGGAGCUCACAGUGAUCAGUGACCACAUCAUUCUCUCUGAGCAGAGGAGCAGGAAUCCCUCAAGCAGCAGCCUGGUCUUGGCUGGUGGGCAGAUGCAA", "RBNS enrichment (R)": 0.432}
{"Sequence": "AGUGCCUGUUUGGUAAGUAGGUUAGCAUUCAUCAUGAACUCUGAAAGCCAUUUCAGAGUUUGGCUGCUGCUCUGACCCUGCUGUGGUACAAAAAACAUGGAUUUUUUUUU", "RBNS enrichment (R)": 0.263}
{"Sequence": "UGAGGAACUUCCAGCUUCAGAUUCUGUUACAAGUGUCACUUGCCAAAGGACCUUACUGUUCCUUCUAAGCAUCCCAGCACCUGGUGUGAUCUAGCUUUCCUCCACCCAUA", "RBNS enrichment (R)": 0.344}
{"Sequence": "ACUAAAAUCAUUUGUCUAAAAAUUUAAGUUGUUUUCAAAUAAAAAUUAAAAUGCAUUUCUGAUAUGCCUGAUUGUGUUGCCUCCAGCUUUUUUUGCUCUCUAUGAGUGAC", "RBNS enrichment (R)": 0.392}
{"Sequence": "GGUCAGGCUGCACUUCUGUUUCUGUCUUUUGCUCAACAGCGGGGUGUGCACUCGUGGCUGCACAGAUGAAGCCCAUGCUGAGUCUGUGGGAACACCCACACUCAGUGCAC", "RBNS enrichment (R)": 0.19}
{"Sequence": "GACCCCCAGCCAGUAGACAUUGGCUAAGAACACAGAAUCUUCUGACCAAACACGCUUUCAGCAGCUGCCUGCUCUGGACUUUGAAAGAGGUCAGGUCUUGCCCUAAGCUC", "RBNS enrichment (R)": 0.323}
{"Sequence": "UCGUUUGUCCUCAGUAAGAGCUGAAUCCUUAAAAAUUUAAGAAACUACUUUCAGCUUCCUGCUCCACCCCUGGCUUGCAAGCCCUCUUUUUGGCCCCUAUUGAGGAUGAA", "RBNS enrichment (R)": 0.373}
{"note": "Some of these lines once more (set 1):"}
{"target": "WNK3 (Homo sapiens, UniProt Q9BYP7)", "remaining binding": "100%"}
{"target": "PRKG1 (Homo sapiens, UniProt Q13976)", "remaining binding": "75%"}
{"target": "MAP2K6 (Homo sapiens, UniProt P52564)", "remaining binding": "100%"}
{"target": "CDK11B (Homo sapiens, UniProt P21127)", "remaining binding": "88%"}
{"target": "PRKCE (Homo sapiens, UniProt Q02156)", "remaining binding": "100%"}
